Measured values gathered from unrelated publications.
Each line is one published result; not all experiments were run side by side. Values joined by “and” are separate records of one study, mostly repeats; a detail may differ.
CSNK1G2: Casein kinase I isoform gamma-2 (CSNK1G2, Homo sapiens, UniProt P78368)

Structure (SMILES) = C=CC(=O)N1CCc2ccc(-n3c(=O)ccc4cnc5ccc(-c6cnn(C)c6)cc5c43)cc21; target or system = CSNK1G2; assay = KINOMEscan; conditions = 1 µM; how to read = reference: DMSO control; quantity = remaining binding; value = 100%
Structure (SMILES) = O=C=[N][Ru-4]123([n]4c5ccc(O)cc5c5c6c(c7cc(F)c[n+]1c7c54)C(=O)NC6=O)[S+]1CC[S+]2CC[S+]3CC1 (stereo not drawn); target or system = CSNK1G2; assay = enzyme activity; conditions = 100 nM, human enzyme, added: 10 µM ATP; how to read = reference: untreated; quantity = remaining activity; value = 44%
Structure (SMILES) = CN1CCN(Cc2ccc(-c3ccc(CO[C@H]4CCC[C@@H]4NC(=O)c4cc(-c5cnn(C)c5)cnc4N)cc3)cc2)CC1; target or system = CSNK1G2; assay = enzyme activity, inhibitor; conditions = 0.1 µM; quantity = inhibition; value = 9%
Structure (SMILES) = C=CC(=O)N1CCCC(n2c(=O)c3ncccc3n(Cc3ccc(Oc4ccccc4)cc3)c2=O)C1 (stereo not drawn); target or system = CSNK1G2; assay = cell-free assay, competition with immobilised ligand; conditions = 1 µM; quantity = remaining binding; value = 87%
Structure (SMILES) = COc1c(Cl)cccc1Nc1c(-c2ccncc2C#C[C@@]2(C)CCCN2C(=O)/C=C/CN(C)C)[nH]c2c1C(=O)NCC2; target or system = CSNK1G2; assay = cell-free assay, competition with immobilised ligand; conditions = 3 µM; quantity = remaining binding; value = 90%
Structure (SMILES) = O=C(Cc1ccc(OCc2ccccc2)cc1)NC1(C(=O)O)CCN(C(=O)c2ccc(-c3cccc(Cl)c3)cc2)CC1; target or system = CSNK1G2; assay = enzyme activity, inhibitor; conditions = 10 µM; quantity = activity vs control; value = 105%
Structure (SMILES) = COCC12C(=O)NC3C4(C(OC)CC1O)C1CC5(O)C(OC)C(O)C(OC(C)=O)(C1C5OC(=O)c1ccccc1)C3(O)C(OC)C24 (stereo not drawn); target or system = CSNK1G2; assay = kinase activity, inhibitor, ProQinase kinase profiling; conditions = 25 µM; how to read = reference: control; quantity = remaining activity; value = 94% and 95%
Structure (SMILES) = CN1CCc2c(sc3c2c(=O)n(-c2ccccc2)c2nnc(SCc4ccccc4)n32)C1; target or system = Trypanosoma cruzi; assay = reporter mRNA translation, inhibitor, measured: capped polyadenylated Renilla luciferase mRNA; test system = cell-free extract; conditions = concentration not given; how to read = reference: control RNA; quantity = relative translation; value = 103%
Structure (SMILES) = C=CC(=O)Nc1cccc(-c2cnc3[nH]cc(C(=O)NC(C)(C)C)c3n2)c1; target or system = CSNK1G2; assay = enzyme activity, inhibitor; conditions = 0.1 µM; quantity = inhibition; value = 4%
Structure (SMILES) = Cc1ccc(-c2c(/C=C(\C#N)C(=O)NC(C)C)n(CCCO)c3ncnc(N)c23)cc1; target or system = CSNK1G2; assay = cell-free assay, competition with immobilised ligand; conditions = 1 µM; quantity = remaining binding; value = 100%
Structure (SMILES) = Cc1cccc(O[C@H]2CCC[C@@H](C(C)CNCc3ccncc3)C2)c1 (relative stereo); target or system = CSNK1G2; assay = kinase activity, kinome panel screening; conditions = 1 µM; quantity = inhibition; value = -6%
Structure (SMILES) = Cc1ccc(NC(=O)CCC(=O)N/N=C/c2ccc([N+](=O)[O-])o2)cc1C; target or system = Trypanosoma cruzi; assay = reporter mRNA translation, inhibitor, measured: capped polyadenylated Renilla luciferase mRNA; test system = cell-free extract; conditions = concentration not given; how to read = reference: control RNA; quantity = relative translation; value = 109%
Structure (SMILES) = CN1CCN(Cc2ccc(NC(=O)c3cccc(C#Cc4cnc(N)c5ncccc45)c3)cc2C(F)(F)F)CC1; target or system = CSNK1G2; assay = cell-free assay, competition with immobilised ligand; conditions = 50 nM; quantity = remaining binding; value = 92%
Structure (SMILES) = Cc1nc2c(F)cc(-c3nc(Nc4ccc(CNC(=O)CCCCCCC(=O)NO)cc4)ncc3F)cc2n1C(C)C; target or system = CSNK1G2; assay = enzyme activity, inhibitor; conditions = 1 µM; quantity = inhibition; value = 55%
Structure (SMILES) = CC(C)=CC1OC(C)(C)C2C=C3C(=O)C(Cl)=CC(O)C3C3C(O)C4OC4C(=O)C132 (stereo not drawn); target or system = CSNK1G2; assay = cell-free assay, competition with immobilised ligand; conditions = 10 µM; quantity = remaining binding; value = 95%
Structure (SMILES) = COc1ccc(NC(=O)Nc2ccc3c(c2)C(=O)N(C(C)CO)CC(C)C(CN(C)Cc2ccc4c(c2)OCO4)O3)cc1 (stereo not drawn); target or system = CSNK1G2; assay = kinase activity, KinaseProfiler; conditions = 0.03 µM, species human; how to read = reference: control; quantity = remaining activity; value = 108%
Structure (SMILES) = NC(=O)[C@@H](O)C[C@H]1CCc2sc3ncnc(O[C@H]4CC[C@H](N5CCOCC5)CC4)c3c21; target or system = CSNK1G2; assay = enzyme activity, inhibitor; conditions = 10 µM; quantity = inhibition; value = 7%
Structure (SMILES) = Cc1cnc2nc1Nc1cccc(c1)COC/C=C/COCc1cc(ccc1OCCN1CCOCC1)N2; target or system = CSNK1G2; assay = cell-free assay; conditions = 0.1 µM; quantity = remaining signal; value = 84%
Structure (SMILES) = CNS(=O)(=O)Nc1nccc(Cc2c(C)c3ccc(Oc4ncccc4F)cc3oc2=O)c1F; target or system = CSNK1G2; assay = binding, competition with immobilised ligand; conditions = 10 µM; quantity = remaining binding; value = 84%
Structure (SMILES) = CNC(=O)C1CCN(c2cc(C)c(F)cc2NC(=O)c2ccc(-c3cc(O)ccc3C)c(C)c2)CC1; target or system = CSNK1G2; assay = binding, competition with immobilised ligand; conditions = 1 µM; quantity = remaining binding; value = 67%
Structure (SMILES) = Nc1ncc2c(n1)-c1c([nH]c3ccc(C4=CCOCC4)cc13)CCC2; target or system = CSNK1G2; assay = binding, competition with immobilised ligand; conditions = 1 µM; quantity = remaining binding; value = 100%

Repeated from above:
Structure (SMILES) = O=C(Cc1ccc(OCc2ccccc2)cc1)NC1(C(=O)O)CCN(C(=O)c2ccc(-c3cccc(Cl)c3)cc2)CC1; target or system = CSNK1G2; assay = enzyme activity, inhibitor; conditions = 10 µM; quantity = activity vs control; value = 105%
